Results collected from several papers.
Protocols differ between the studies behind these lines. ± gives the spread as reported.

Structure (SMILES) = O=C(c1ccccc1)c1cc(O)c(-c2cc(Cl)cc(Cl)c2)c(O)c1; test system = male Sprague-Dawley rat, plasma; conditions = intravenous, 5 mg/kg; Cmax = 6230 ± 1670 ng/mL
Structure (SMILES) = Cc1noc(C)c1Cn1cc(N2C(=O)CN(Cc3cccc(O[C@@H]4O[C@H](C(=O)O)[C@@H](O)[C@H](O)[C@H]4O)c3)C2=O)cn1; test system = rat Sprague-Dawley male, plasma; conditions = oral, 10 mg/kg of parent drug; Cmax = 2540 ng/mL
Structure (SMILES) = Cc1cc2c(cc1C1(c3ncc(C(=O)O)cn3)CC1)C(C)(C)CCC2(C)C; test system = rat Sprague-Dawley male, plasma; conditions = oral, 100 mg/kg, sesame oil; Cmax = 25400 ng/mL
Structure (SMILES) = CCCCCCCOc1ccc(CC[C@](N)(CO)COP(=O)(O)O)cc1C(F)(F)F; test system = rat Sprague-Dawley male, heart; conditions = oral, 1 mg/kg; Cmax = 42 ng/g
Structure (SMILES) = Cc1ncc2c(n1)CN(C(=O)Nc1nc(-c3cccs3)ccc1N)C2; test system = male Sprague-Dawley rats; conditions = oral, 60 mg/kg daily, day 14; Cmax = 3760 ± 1160 ng/mL
Structure (SMILES) = COC(=O)/C=C/C(=O)c1ccc(OC)cc1; test system = Sprague-Dawley rat, both sexes, plasma; conditions = oral, 100 mg/kg; Cmax = 290 ± 37.5 ng/mL
Structure (SMILES) = Cc1ccccc1/N=N/c1ccc(/N=N/c2c(O)ccc3ccccc23)c(C)c1; test system = Sprague-Dawley rats both sexes, whole blood; conditions = oral, 50 mg/kg; Cmax = 1300 ng/mL
Structure (SMILES) = Cc1noc(C)c1Cn1cc(N2C(=O)CN(Cc3cccc(OS(=O)(=O)O)c3)C2=O)cn1; test system = rat Sprague-Dawley male, plasma; conditions = oral, 30 mg/kg of parent drug; Cmax = 4620 ng/mL
Structure (SMILES) = CC(=O)[CH](C(C)=O)[Pt-2]1([S+](C)C)[O]C(C)=CC(C)=[O+]1 (centres unmarked); test = item: platinum; test system = rat, plasma; conditions = intravenous, dose not given; Cmax = 90200 ng/mL
Structure (SMILES) = N[C@H](COc1ccccc1C(F)(F)F)c1ccccc1; test system = male Sprague-Dawley rat, serum; conditions = intravenous, 5 mg/kg; Cmax = 219 ± 15 ng/mL
Structure (SMILES) = CC(C)C[C@H](NC(=O)[C@H](CCCCN)NC(=O)CNC(=O)[C@H](CC(C)C)NC(=O)[C@@H](NC(=O)[C@@H]1CSSC[C@H](N)C(=O)N[C@@H](CO)C(=O)N[C@@H](CC(N)=O)C(=O)N[C@@H](CC(C)C)C(=O)N[C@@H](CO)C(=O)N[C@@H]([C@@H](C)O)C(=O)N1)C(C)C)C(=O)N[C@@H](CO)C(=O)N[C@@H](CCC(N)=O)C(=O)N[C@@H](CCC(=O)O)C(=O)N[C@@H](CC(C)C)C(=O)N[C@@H](Cc1c[nH]cn1)C(=O)N[C@@H](CCCCN)C(=O)N[C@@H](CC(C)C)C(=O)N[C@@H](CCC(N)=O)C(=O)N[C@H](C(=O)N[C@@H](Cc1ccc(O)cc1)C(=O)N1CCC[C@H]1C(=O)N[C@@H](CCCNC(=N)N)C(=O)N[C@H](C(=O)N[C@@H](CC(N)=O)C(=O)N[C@H](C(=O)NCC(=O)N[C@@H](CO)C(=O)NCC(=O)N[C@H](C(=O)N1CCC[C@H]1C(N)=O)[C@@H](C)O)[C@@H](C)O)[C@@H](C)O)[C@@H](C)O; test = ELISA; test system = hairless male Sprague-Dawley rat, serum; conditions = intravenous, 3 µg; Cmax = 10.5 ± 7 ng/mL
Structure (SMILES) = CCNC(=O)[C@@H]1CCCN1C(=O)[C@H](CCCNC(=N)N)NC(=O)[C@H](CC(C)C)NC(=O)[C@@H](CC(C)C)NC(=O)[C@H](Cc1ccc(O)cc1)NC(=O)[C@H](CO)NC(=O)[C@H](Cc1c[nH]c2ccccc12)NC(=O)[C@H](Cc1c[nH]cn1)NC(=O)[C@@H]1CCC(=O)N1; test system = Sprague-Dawley rat, male, plasma; conditions = subcutaneous, 12.5 mg/kg; Cmax = 2780 ng/mL
Structure (SMILES) = CN1CC[C@@H](NC(=O)Nc2ccc(C#N)cc2)C[C@@H]1c1nc2ccccc2[nH]1; test = item: total compound; test system = moderate hepatic impairment, plasma; conditions = oral, 100 mg single dose, fasted, arithmetic mean; Cmax = 900 ng/mL
Structure (SMILES) = NC(=O)/C=C/c1cccc(S(=O)(=O)Nc2ccccc2)c1; test system = patients with moderate liver dysfunction, plasma; conditions = intravenous, 400 mg/m^2 belinostat, single 30 min infusion, cycle 1 day -7, mean; Cmax = 1640 ng/mL

Some of these lines once more:
Structure (SMILES) = Cc1noc(C)c1Cn1cc(N2C(=O)CN(Cc3cccc(OS(=O)(=O)O)c3)C2=O)cn1; test system = rat Sprague-Dawley male, plasma; conditions = oral, 30 mg/kg of parent drug; Cmax = 4620 ng/mL
